Measurements of several laboratories.
Every numbered part comes from another study and shows a few of its results, in no order. Several values in a cell are separate wells, animals, samples, runs or records.

Series 1 — cell line: U-87 MG; concentration: concentration not given; relative to: DMSO
Structure (SMILES): CCN1/C(=C/C=C2\CCCC(/C=C/C3=[N+](CC)c4ccccc4C3(C)C)=C2NCCCCCCCCN2CCC(Nc3nc4ccccc4n3Cc3ccc(F)cc3)CC2)C(C)(C)c2ccccc21
measured	log2 fold change
YRDC mRNA	1.06
WIPI1 mRNA	1.71
DENND1B mRNA	-1.39
ZNF512B mRNA	-0.878
ABHD4 mRNA	1.44
ZNF827 mRNA	-0.925
TMEM106C mRNA	-1.01
RAB11FIP1 mRNA	-3
CSF1 mRNA	-3.07
POLA2 mRNA	-1.59
EGR1 mRNA	-0.997

Series 2 — organism: Arabidopsis thaliana; strain: Col-0; concentration: 6.25 µg/mL; setting: seed germination, single repetition
SMILES	hypocotyl length
O=C(O)C1(O)Oc2cc(Cl)ccc2N(Cc2ccccc2)C1=O (centres unmarked)	2.05 cm and 2.07 cm
CCCN1C(=O)C(O)(C(=O)O)Oc2cc(F)ccc21 (centres unmarked)	2.15 cm and 2.1 cm and 2.23 cm and 2.14 cm
CC(C)(C)c1ccc(Oc2ccc3c(c2)OC(O)(C(=O)O)C(=O)N3Cc2ccccc2)cc1 (centres unmarked)	2.05 cm and 2.06 cm and 1.96 cm and 2.01 cm
COc1ccc2c(c1)OC(O)(C(=O)O)C(=O)N2Cc1ccccc1 (centres unmarked)	1.9 cm and 1.93 cm and 1.85 cm and 1.88 cm
O=C(O)C1Oc2cc(F)ccc2N(Cc2ccccc2)C1=O (centres unmarked)	2.31 cm and 2.28 cm and 2.35 cm and 2.34 cm and 2.2 cm

Series 3 — cell line: HCC1569; method: in-cell western; measured: CDK1 phospho-Thr14; concentration: 37.04 nM
Structure (SMILES)	pCDK1 (Thr14) level
Cc1ccc(O)c(C)c1-c1cnc2[nH]c(-c3cnc(N4CCC(CCN5CCN(c6cc7c(cc6F)c(N6CCC(=O)NC6=O)nn7C)CC5)CC4)nc3)cc2c1C#N	57.1 RLU and 43.4 RLU
Cc1ccc(O)c(C)c1-c1cnc2[nH]c(-c3cnc(N4CCC(CCN5CCN(c6ccc7c(c6)C(=O)N(C6CCC(=O)NC6=O)C7=O)CC5)CC4)nc3)cc2c1C#N (racemic)	27.2 RLU and 25.3 RLU
Cc1ccc(O)c(C)c1-c1cnc2[nH]c(-c3cnc(N4CCC(CN5CCN(c6ccc(NC7CCC(=O)NC7=O)c(F)c6)CC5)CC4)nc3)cc2c1C#N (racemic)	31.5% and 23.6%
Cc1ccc(O)c(C)c1-c1cnc2[nH]c(-c3cnc(N4CCC(CN5CCN(c6ccc7c(c6)C(=O)N(C6CCC(=O)NC6=O)C7=O)CC5)CC4)nc3)cc2c1C#N (centres unmarked)	43.7% and 52.8%
Cc1ccc(O)c(C)c1-c1cnc2[nH]c(-c3cnc(N4CCC5(CC4)CC(N4CCN(c6cc7c(cc6F)c(N6CCC(=O)NC6=O)nn7C)CC4)CO5)nc3)cc2c1C#N (racemic)	55.3 RLU and 51.4 RLU
Cc1ccc(O)c(C)c1-c1cnc2[nH]c(-c3cnc(N4CCC(CN5CCN(c6c(F)cc(NC7CCC(=O)NC7=O)cc6F)CC5)CC4)nc3)cc2c1C#N (racemic)	34.3% and 38.9%

Series 4 — observed: thermal unfolding; method: differential scanning fluorimetry; concentration: 5.5 µM; direction: higher = more unfolded
Compound: C[C@@H]1CN(c2ccc(-c3cc(C(=O)NCCOCCOCCOCCOCCOCCOCCNC(=O)/C=C/c4[nH]cc(C(=O)N[C@@H](CC(N)=O)c5ccc(F)c(Cl)c5)c4-c4ccc(Cl)cc4F)ccc3F)cc2NC(=O)c2ccc(F)cc2C(F)(F)F)C[C@H](C)N1C
WDR5: WD repeat-containing protein 5 (WDR5, Homo sapiens, UniProt P61964)
DCAF1: DDB1- and CUL4-associated factor 1 (DCAF1, Homo sapiens, UniProt Q9Y4B6)
UniProt Q9Y4B6, sequence (whole entry, looked up): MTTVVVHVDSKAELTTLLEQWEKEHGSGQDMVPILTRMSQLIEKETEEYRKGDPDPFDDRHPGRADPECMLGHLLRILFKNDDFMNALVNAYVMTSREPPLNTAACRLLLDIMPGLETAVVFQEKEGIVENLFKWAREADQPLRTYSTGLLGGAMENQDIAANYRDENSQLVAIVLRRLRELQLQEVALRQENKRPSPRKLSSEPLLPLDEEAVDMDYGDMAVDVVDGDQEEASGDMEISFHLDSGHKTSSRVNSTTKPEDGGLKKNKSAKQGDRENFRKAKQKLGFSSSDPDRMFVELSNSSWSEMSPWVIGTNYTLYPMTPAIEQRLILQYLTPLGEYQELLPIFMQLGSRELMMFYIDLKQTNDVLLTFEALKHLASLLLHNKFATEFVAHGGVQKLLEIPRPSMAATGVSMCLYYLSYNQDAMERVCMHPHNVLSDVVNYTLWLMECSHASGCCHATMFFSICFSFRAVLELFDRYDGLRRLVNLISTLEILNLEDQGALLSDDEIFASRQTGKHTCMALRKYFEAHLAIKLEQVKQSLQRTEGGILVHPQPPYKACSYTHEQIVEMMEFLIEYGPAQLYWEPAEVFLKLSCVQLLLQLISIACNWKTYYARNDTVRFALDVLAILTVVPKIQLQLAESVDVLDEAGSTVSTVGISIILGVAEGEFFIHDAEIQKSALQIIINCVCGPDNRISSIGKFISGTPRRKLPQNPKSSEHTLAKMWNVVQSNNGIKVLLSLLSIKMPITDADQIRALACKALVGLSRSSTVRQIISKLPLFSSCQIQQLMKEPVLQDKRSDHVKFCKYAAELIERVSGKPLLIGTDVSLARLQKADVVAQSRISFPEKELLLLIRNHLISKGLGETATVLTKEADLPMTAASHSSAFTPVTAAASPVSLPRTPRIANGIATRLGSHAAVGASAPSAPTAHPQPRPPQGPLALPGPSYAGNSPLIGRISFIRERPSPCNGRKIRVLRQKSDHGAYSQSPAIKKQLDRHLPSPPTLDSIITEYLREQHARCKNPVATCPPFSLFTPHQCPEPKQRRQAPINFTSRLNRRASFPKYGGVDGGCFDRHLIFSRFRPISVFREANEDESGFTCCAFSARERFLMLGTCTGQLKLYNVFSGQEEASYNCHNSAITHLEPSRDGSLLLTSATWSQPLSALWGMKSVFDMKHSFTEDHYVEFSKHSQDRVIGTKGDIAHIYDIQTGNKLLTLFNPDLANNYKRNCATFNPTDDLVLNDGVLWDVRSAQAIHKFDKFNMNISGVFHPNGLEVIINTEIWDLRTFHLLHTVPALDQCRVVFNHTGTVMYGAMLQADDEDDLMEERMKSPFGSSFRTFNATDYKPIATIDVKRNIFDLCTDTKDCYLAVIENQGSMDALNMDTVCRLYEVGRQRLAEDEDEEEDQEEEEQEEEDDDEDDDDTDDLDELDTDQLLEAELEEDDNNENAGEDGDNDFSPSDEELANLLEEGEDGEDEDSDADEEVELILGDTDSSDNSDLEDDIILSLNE
target	temperature	SYPRO Orange fluorescence [a.u.]
WDR5	94.21 °C	49100
DCAF1	85.01 °C	35900
WDR5	92.01 °C	51700
WDR5	44 °C	14500
DCAF1	78.81 °C	40700
WDR5	79.41 °C	63700
DCAF1	27.6 °C	7840

A few entries again (series 1):
measured	log2 fold change
ABHD4 mRNA	1.44
